Results pooled from the literature.
Compare with care: the assays were run in different laboratories. “And” joins repeats or separate records; there may be more than shown. ± marks the error that the study gave.
Sequence of UniProt Q9Y5T5 (whole entry, looked up): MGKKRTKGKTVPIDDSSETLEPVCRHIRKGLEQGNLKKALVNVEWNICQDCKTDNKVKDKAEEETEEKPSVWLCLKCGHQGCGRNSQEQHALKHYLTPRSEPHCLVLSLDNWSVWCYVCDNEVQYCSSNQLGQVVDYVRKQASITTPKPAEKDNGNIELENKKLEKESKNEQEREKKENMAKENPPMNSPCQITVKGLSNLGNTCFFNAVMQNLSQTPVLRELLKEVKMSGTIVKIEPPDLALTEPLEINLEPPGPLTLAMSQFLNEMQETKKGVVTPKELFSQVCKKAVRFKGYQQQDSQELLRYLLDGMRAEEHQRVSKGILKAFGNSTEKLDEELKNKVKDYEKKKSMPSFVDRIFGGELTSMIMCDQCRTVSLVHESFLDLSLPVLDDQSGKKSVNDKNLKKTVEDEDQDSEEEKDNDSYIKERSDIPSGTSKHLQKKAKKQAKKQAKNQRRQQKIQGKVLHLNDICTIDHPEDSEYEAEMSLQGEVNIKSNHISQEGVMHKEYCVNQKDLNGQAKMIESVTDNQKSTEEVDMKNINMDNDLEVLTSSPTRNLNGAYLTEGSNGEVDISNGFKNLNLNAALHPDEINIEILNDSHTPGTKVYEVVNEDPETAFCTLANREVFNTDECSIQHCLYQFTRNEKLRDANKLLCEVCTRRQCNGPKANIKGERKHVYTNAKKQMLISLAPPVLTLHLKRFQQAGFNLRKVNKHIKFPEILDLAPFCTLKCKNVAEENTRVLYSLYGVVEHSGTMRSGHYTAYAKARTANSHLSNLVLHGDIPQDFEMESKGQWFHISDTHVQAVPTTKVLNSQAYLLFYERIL
Sequence of UniProt Q9NPD5 (whole entry, looked up): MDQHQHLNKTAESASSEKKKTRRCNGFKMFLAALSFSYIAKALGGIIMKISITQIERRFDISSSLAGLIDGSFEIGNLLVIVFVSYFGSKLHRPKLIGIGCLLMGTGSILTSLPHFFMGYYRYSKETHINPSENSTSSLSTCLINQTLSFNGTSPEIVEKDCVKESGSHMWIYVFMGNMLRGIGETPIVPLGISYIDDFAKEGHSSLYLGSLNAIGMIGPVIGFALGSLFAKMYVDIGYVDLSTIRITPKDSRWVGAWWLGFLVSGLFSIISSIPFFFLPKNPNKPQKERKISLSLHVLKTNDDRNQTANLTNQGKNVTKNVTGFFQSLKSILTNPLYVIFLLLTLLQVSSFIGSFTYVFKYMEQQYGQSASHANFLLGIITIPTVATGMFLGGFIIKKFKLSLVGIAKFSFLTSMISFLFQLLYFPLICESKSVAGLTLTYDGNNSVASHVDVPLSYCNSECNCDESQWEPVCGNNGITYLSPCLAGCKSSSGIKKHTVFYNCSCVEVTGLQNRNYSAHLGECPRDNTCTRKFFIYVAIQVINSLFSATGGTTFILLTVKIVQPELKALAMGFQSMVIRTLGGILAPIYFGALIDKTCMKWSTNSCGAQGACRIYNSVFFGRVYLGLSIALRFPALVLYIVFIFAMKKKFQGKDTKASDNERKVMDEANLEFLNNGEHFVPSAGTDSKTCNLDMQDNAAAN

SMILES	target or system	test	system	conditions	scale	quantity	result
NC1(C(=O)N[C@@H](CCO)c2ccc(Cl)cc2)CCN(c2nc[nH]c3nccc2-3)CC1	–	–	metastatic CRPC patients	480 mg b.i.d., grade 3 to 4, treatment-related, added: enzalutamide 160 mg daily	–	incidence of Blindness	0%
Cc1cc(NC2CCN(C(=O)OC3CCN(C(=O)/C=C/CN(C)C)C3)CC2)n2ncc(C(C)C)c2n1 (centres unmarked)	–	Phase I dose escalation CTCAE v4.0, refers to: ALT increased	patients with advanced solid tumours	dose not given, Total dosing any grade	–	patients with adverse event	17%
OCC1=C[C@@H](O)[C@@H]2C=CO[C@@H](O[C@@H]3O[C@H](CO)[C@@H](O)[C@H](O)[C@H]3O)[C@H]12	–	post-procedure stability	rat plasma	1000 ng/mL, 3 h, room temperature	–	accuracy	89.2%
O=C1NCCc2nc(OCc3cccc(F)c3)ccc21	–	refers to: skin color	Sprague-Dawley rat male	oral, 100 mg/kg, 1 h	direction not given	Irwin test score	0
C=CC(=O)Nc1cccc(-n2nc3c(=O)[nH]nc(N)c3c2-c2oc3ccc(C)cc3c2C)c1	–	–	BALB/c nude mouse, whole blood	1 µM, 5 h, 37 °C	–	remaining compound	20.2%
Cn1cc(Nc2nccc(-c3ccc4c(c3)CN(C3COC3)CC[C@H]4NC(=O)c3cn(C(C)(C)C)nn3)n2)cn1	–	–	human, whole blood	50 mg twice daily, day 14	baseline: pre-dose baseline	granulocyte count change	-16.7%
c1cc2ccc3ccc4ccc5cccc6c(c1)c2c3c4c56	–	–	PDMS-water partitioning	PAH compilation	–	literature range of log K	5.02 to 5.61 log units
CNCCOC12CC3(C)CC(C)(CC(Cn4ncc(-c5ccc(N6CCc7cccc(C(=O)Nc8nc9ccccc9s8)c7C6)nc5C(=O)O)c4C)(C3)C1)C2	–	–	anaesthetised male beagle dogs	intravenous bolus, 0.03 mg/kg, 15 min	–	plasma concentration	14 ± 1.2 ng/mL
O=C(O)CCN1C(=O)CSC1=S	–	–	Bama miniature pig, excised skin	10 mM, 24 h, 30% ethanol in saline donor	–	permeation rate	1.52 ± 0.076 µmol/cm²/h
NCCONC(=O)[C@@H]1CC[C@@H]2CN1C(=O)N2OS(=O)(=O)O	–	–	human male, urine	intravenous infusion, 1 g multiple doses, day 9	–	amount excreted in urine (0-24 h)	918 mg
N[C@@H](Cc1ccccc1)C(=O)O	–	binding, MIDAS equilibrium dialysis LC-MS	A2AR-BRIL thermostabilized	concentration not given	baseline: no-protein control	log2 fold change	-0.142
CCOc1c([C@H](C)n2nc(C)c3c(N)ncnc32)cc(Cl)c(F)c1[C@@H]1CNC(=O)C1	–	refers to: QTcF ≤ 450 ms	previously treated B-cell malignancy	oral, dose not given, baseline QTcF ≤450 ms, all doses	–	share of ECG observations	97.2%
COc1cccc(OC)c1-c1cc(C(=O)NC2(C(=O)O)C3CC4CC(C3)CC2C4)nn1-c1ccc(C(=O)N(C)CCCN(C)CCCN(C)C(=O)CN2CCN(CC(=O)[O-])CCN(CC(=O)[O-])CCN(CC(=O)[O-])CC2)cc1C(C)C.[177Lu+3] (centres unmarked)	–	–	mouse HT-29 xenograft	4 h, biodistribution	baseline: tumour over pancreas	tumour-to-pancreas ratio	16.8
CO[C@H]1/C=C/O[C@@]2(C)Oc3c(C)c(O)c4c(c3C2=O)C2=NC3(CCN(CC(C)C)CC3)NC2=C(NC(=O)/C(C)=C\C=C\[C@H](C)[C@H](O)[C@@H](C)[C@@H](O)[C@@H](C)[C@H](OC(C)=O)[C@@H]1C)C4=O	–	–	CD-1 mouse female, plasma	oral, 10 mg/kg	–	fAUC/MIC ratio	0.25
CC(C)[C@H](C(=O)Nc1ccc(C(=O)NO)cc1)c1ccccc1	–	–	whole blood	100 ng/mL, 1 h, 4 °C, stability on ice	–	accuracy	109%
Cn1cc(-c2ccc(-c3cncc(Cl)c3N3CCC4(CCNC4=O)CC3)cc2)cn1	COLO 205	gene expression, microarray, refers to: HIST2H4A mRNA	–	concentration not given, 2 h	baseline: untreated cells	log2 fold change	-2.49
CCCCC1=NC2(CCCC2)C(=O)N1Cc1ccc(-c2ccccc2S(=O)(=O)Nc2noc(C)c2C)c(COCC)c1	–	–	healthy adult volunteers, plasma	oral, 100 mg, single dose, fed, crushed tablet	–	Cmax	2310 ng/mL
FC(F)(F)c1ccc(CNc2ccc(Cc3c[nH]c4ncc(Cl)cc34)cn2)cn1	–	refers to: Headache	patients with advanced solid tumours, all cohorts	oral, 1000 mg/day, any grade	–	treatment-related adverse events	10%
CC[C@H](C)C(=O)N1CCC(NC(=O)Nc2ccc(OC(F)(F)F)c(F)c2)CC1	Caco-2	Caco-2 permeability	–	10 µM, 60 min, pH 7.4 apical, 7.4 basolateral, replicate 1	basolateral to apical	percent recovery	81%
Cc1cc(-c2nccc3c2ccn3CC(=O)Nc2ccc(-c3cnccn3)cn2)ccn1	–	–	human, plasma and urine	oral, 20 mg once daily, day 16, geometric mean	–	renal clearance	0.152 L/h
Cc1cnc(N2CC3(CCOCC3)C2)c(C(=O)Nc2ccc(C(=O)N3CCc4cc(C(=O)Nc5c(C)cccc5F)sc4-c4ccccc43)cc2)c1	–	–	dog	oral gavage, 2 mg/kg	–	plasma level after oral dosing	~1 ng/mL
CC(C)(C)OC[C@@H]1C(=O)NCCN1C(=O)C[C@H](N)Cc1cc(F)c(F)cc1F	–	–	healthy humans, plasma	oral, 5 mg, alone	–	Vss/F	1740 ± 410 L
CCOC(=O)c1c(NC(=O)CNC(C)C)sc2c1CCCCC2	–	–	mouse, brain	intraperitoneal, 100 mg/kg	–	brain AUC(0-0.5 h)	3950 ng·h/g
CCn1cc(C(=O)N2CCOCC2)c(=O)c2cc(NC3Cc4ccccc4C3)cnc21	–	–	human, fed	oral suspension, 2000 mg/day twice daily, day 1, arithmetic mean	–	Cmax	1360 ng/mL
O=C(Nc1nc2cccc(-c3ccc(CN4CCS(=O)(=O)CC4)cc3)n2n1)C1CC1	–	refers to: rheumatoid arthritis	rheumatoid arthritis patients	oral, 150 mg once daily, 4 weeks, any relatedness	–	treatment-emergent adverse events	0%

SMILES	target or system	test	system	conditions	scale	quantity	result
C[Si]1(C)O[Si](C)(C)O[Si](C)(C)O[Si](C)(C)O1	–	IVIVE from S9	rainbow trout (Oncorhynchus mykiss)	–	–	whole-body biotransformation rate constant	0.018 day⁻¹ and 0.009 day⁻¹ and 0.011 day⁻¹
Oc1ccc(/C=C/c2cc(O)cc(O)c2)cc1	–	–	rat, azoxymethane-injected, blood at sacrifice	10 mg/kg	–	HDL cholesterol	23 mg/dL and 26 mg/dL and 25 mg/dL
[18F]c1ccc(-c2ccc3c(c2)[nH]c2ccncc23)cn1	–	microPET/CT imaging	APP/PS1 mouse, AD model, brain	intravenous, 10 min	–	SUV	0.989 ± 0.236
COc1ccc(C[C@H](NC(=O)[C@H](C)NC(=O)CN2CCOCC2)C(=O)N[C@@H](Cc2ccccc2)C(=O)C2(C)CO2)cc1 (stereo in doubt)	–	–	BALB/c mouse	oral vs intravenous, 20 mg/kg	–	F	23.8%
Cc1ccc([C@@H]2O[C@H](CO)[C@@H](O)[C@H](O)[C@H]2O)cc1Cc1ccc(-c2ccc(F)cc2)s1	–	–	Japanese type 2 diabetes patients	100 mg, day 2, 24 h urine collection	baseline: baseline	urinary chloride excretion change	-34.6 mEq
CCC(=O)N(CCC(c1ccc2c(c1)OCO2)c1ccccc1OC)Cc1ccccc1 (centres unmarked)	–	–	female athymic nude mouse, blood	i.p., 60 mg/kg twice daily, 14 days, group mean	–	ALP	99 U/L
Cc1c(-c2ccc(N3CCc4cccc(C(=O)Nc5nc6ccccc6s5)c4C3)nc2C(=O)O)cnn1CC12CC3(C)CC(C)(C1)CC(OCCNCC[C@H](O)CO)(C3)C2	–	–	beagle dog, male, anaesthetised	intravenous infusion, 0.3 mg/kg/min, 120 (unit not given)	baseline: vehicle	heart rate change	-16%
COc1ccc([C@@H](O)c2cc(-c3ncnc4cc(N5CCOCC5)ccc34)c(F)cc2Cl)nn1	–	–	mouse, hippocampus	125 mg/kg, 4 h, added: 5 Gy radiation	baseline: radiation alone	γH2AX foci resolution	no effect
NC(=O)N1c2ccccc2C=Cc2ccccc21	–	refers to: skin disorders (SOC)	human male	oral, dose not given, CTCAE on-treatment AEs	–	adverse events incidence	13%
CCn1c(=O)c(-c2cc(NC(=O)Nc3ccccc3)c(F)cc2Br)cc2cnc(NC)cc21	–	refers to: lipase increased	human, mild hepatic impairment	oral, 50 mg single dose	–	participants with grade ≥ 3 TEAE	37.5%
Cc1nc2cccc(OCC(C)(C)C(=O)NC(C)C)c2c(N)c1C(=O)O	–	–	male Swiss albino CD-1 mouse, bone marrow	oral, 500 mg/kg, 48 h	–	micronucleated polychromatic erythrocytes	0.06%
COc1cc2nccc(Oc3ccc(NC(=O)c4cc5c(n(-c6ccccc6)c4=O)CCCC5=O)nc3)c2cc1OC	–	–	relapsed or refractory AML	oral, all dose levels	–	grade ≥3 Syncope patients	15%
CC(C)c1nc(N(C)S(C)(=O)=O)nc(-c2ccc(F)cc2)c1/C=C/[C@@H](O)C[C@@H](O)CC(=O)O	SLCO1B3 (Homo sapiens, UniProt Q9NPD5)	uptake, substrate	HEK293-A stably expressing SLCO1B3	2 min	–	Vmax	330 ± 140 pmol/mg protein/min
Cc1cc([C@H]2C[C@H]3[C@@H](CF)SC(N)=N[C@@]3(c3ccc(F)cc3F)CO2)on1	–	–	male 129/SVE wild-type mouse, plasma	subcutaneous, 30 mg/kg, 1 h	–	plasma concentration	5.12 µM
COc1ccc2c(c1)CN(C(=O)CCN1CCC(Cc3ccccc3)CC1)CC[S@@+]2[O-]	–	telemetry	conscious dog	intravenous, 4 mg/kg, 4 h	–	heart rate	59 ± 5 beats/min
CO[C@H]1C[C@@H]2CC[C@@H](C)[C@@](O)(O2)C(=O)C(=O)N2CCCC[C@H]2C(=O)O[C@H]([C@H](C)C[C@@H]2CC[C@@H](O)[C@H](OC)C2)CC(=O)[C@H](C)/C=C(\C)[C@@H](O)[C@@H](OC)C(=O)[C@H](C)C[C@H](C)/C=C/C=C/C=C/1C	–	–	healthy adult horses	oral, 0.06 mg/kg, 24 h	–	heart rate	35.5 ± 2.4 beats/min
NS(=O)(=O)c1cc(C(=O)O)c(NCc2ccco2)cc1Cl	–	refers to: haematoma	healthy men	oral, 8 days, treatment-emergent, crossover trial	–	subjects with adverse event	0%
CC(=O)O[C@H]1C(=O)[C@@]2(C)[C@H]([C@H](OC(=O)c3ccccc3)[C@]3(O)C[C@H](OC(=O)[C@H](O)[C@@H](NC(=O)c4ccccc4)c4ccccc4)C(C)=C1C3(C)C)[C@]1(OC(C)=O)CO[C@@H]1C[C@@H]2O	–	refers to: Nausea	patients with advanced solid tumours	intravenous, dose not given, grade 1 and 2, possibly related to drug	–	adverse event incidence	28%
CNC(=O)c1ccc(-c2cnc3ncc(Cc4ccc5ncccc5c4)n3n2)cc1F	–	refers to: Fatigue	hepatocellular carcinoma patients	oral, 600 mg twice daily, expansion cohort, grade 3-4	–	patients with adverse event	0%
CNC(=O)c1cc(Oc2ccc(NC(=O)Nc3cc(C(C)(C)C)nn3-c3ccc4ncccc4c3)c(F)c2)ccn1	–	refers to: worst grade 1	human	oral, dose not given, cycles 1 and 2, Medium Cmax subgroup	–	patients with any AE of special interest	40%
NC(=O)c1ccc[n+]([C@@H]2O[C@H](COP(=O)([O-])OP(=O)(O)OC[C@H]3O[C@@H](n4cnc5c(N)ncnc54)[C@H](OP(=O)(O)O)[C@@H]3O)[C@@H](O)[C@H]2O)c1	–	binding, MIDAS equilibrium dialysis LC-MS	A2AR-BRIL thermostabilized	concentration not given	baseline: no-protein control	log2 fold change	-0.287
C/C(O)=C(\C#N)C(=O)Nc1ccc(C(F)(F)F)cc1	–	–	CD-1 mice female, plasma	oral, 30 mg/kg leflunomide daily, 24 h	–	free plasma concentration	251 ± 130 µM
Oc1ccc([C@@H](O)c2cc(-c3ncnc4cc(N5CCOCC5)ccc34)c(F)cc2Cl)nn1	–	–	healthy human volunteers, urine	0-24 h, high-fat fed tablet, geometric mean	baseline: dose	amount excreted in urine	5.2%
CSc1nc(C)c(CCC(=O)O)c(=O)[nH]1	Ubiquitin carboxyl-terminal hydrolase 16, ZnF-UBD domain (USP16, Homo sapiens, UniProt Q9Y5T5)	–	–	–	–	Kd	118 µM
CCc1cc(C(=O)NC)c2nccc(N3CCc4c(cc(Cn5ccnc5)cc4-c4cn(C)nc4C(F)(F)F)C3=O)c2c1	–	refers to: CREA	Sprague Dawley rat	oral, 50 mg/kg once daily, 7 days	baseline: vehicle	change in clinical chemistry or haematology parameter	-5.6%

Some of these lines once more:
SMILES	target or system	test	system	conditions	scale	quantity	result
CNC(=O)c1ccc(-c2cnc3ncc(Cc4ccc5ncccc5c4)n3n2)cc1F	–	refers to: Fatigue	hepatocellular carcinoma patients	oral, 600 mg twice daily, expansion cohort, grade 3-4	–	patients with adverse event	0%
CCCCC1=NC2(CCCC2)C(=O)N1Cc1ccc(-c2ccccc2S(=O)(=O)Nc2noc(C)c2C)c(COCC)c1	–	–	healthy adult volunteers, plasma	oral, 100 mg, single dose, fed, crushed tablet	–	Cmax	2310 ng/mL
COc1cccc(OC)c1-c1cc(C(=O)NC2(C(=O)O)C3CC4CC(C3)CC2C4)nn1-c1ccc(C(=O)N(C)CCCN(C)CCCN(C)C(=O)CN2CCN(CC(=O)[O-])CCN(CC(=O)[O-])CCN(CC(=O)[O-])CC2)cc1C(C)C.[177Lu+3] (centres unmarked)	–	–	mouse HT-29 xenograft	4 h, biodistribution	baseline: tumour over pancreas	tumour-to-pancreas ratio	16.8
C/C(O)=C(\C#N)C(=O)Nc1ccc(C(F)(F)F)cc1	–	–	CD-1 mice female, plasma	oral, 30 mg/kg leflunomide daily, 24 h	–	free plasma concentration	251 ± 130 µM
CCOC(=O)c1c(NC(=O)CNC(C)C)sc2c1CCCCC2	–	–	mouse, brain	intraperitoneal, 100 mg/kg	–	brain AUC(0-0.5 h)	3950 ng·h/g
